Assay results from different studies.
Compare with care: the assays were run in different laboratories. Several values in a cell are separate wells, animals, samples, runs or records. ± marks the error that the study gave.
UniProt P22309, sequence (whole entry, looked up): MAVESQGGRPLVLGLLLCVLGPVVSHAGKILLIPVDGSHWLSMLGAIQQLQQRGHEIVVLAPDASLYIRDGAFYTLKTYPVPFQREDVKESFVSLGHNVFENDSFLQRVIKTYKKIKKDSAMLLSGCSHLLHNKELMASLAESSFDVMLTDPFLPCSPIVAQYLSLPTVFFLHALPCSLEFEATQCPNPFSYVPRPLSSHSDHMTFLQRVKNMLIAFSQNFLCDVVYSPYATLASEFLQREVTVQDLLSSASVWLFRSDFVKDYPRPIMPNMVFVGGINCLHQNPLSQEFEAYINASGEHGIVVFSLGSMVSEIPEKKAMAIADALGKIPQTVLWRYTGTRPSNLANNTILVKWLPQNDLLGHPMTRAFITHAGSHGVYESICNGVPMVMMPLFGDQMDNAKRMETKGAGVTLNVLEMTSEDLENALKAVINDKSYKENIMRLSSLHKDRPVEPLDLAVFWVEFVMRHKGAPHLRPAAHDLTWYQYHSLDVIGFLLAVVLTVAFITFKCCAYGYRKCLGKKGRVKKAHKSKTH
UniProt P08183, sequence (whole entry, looked up): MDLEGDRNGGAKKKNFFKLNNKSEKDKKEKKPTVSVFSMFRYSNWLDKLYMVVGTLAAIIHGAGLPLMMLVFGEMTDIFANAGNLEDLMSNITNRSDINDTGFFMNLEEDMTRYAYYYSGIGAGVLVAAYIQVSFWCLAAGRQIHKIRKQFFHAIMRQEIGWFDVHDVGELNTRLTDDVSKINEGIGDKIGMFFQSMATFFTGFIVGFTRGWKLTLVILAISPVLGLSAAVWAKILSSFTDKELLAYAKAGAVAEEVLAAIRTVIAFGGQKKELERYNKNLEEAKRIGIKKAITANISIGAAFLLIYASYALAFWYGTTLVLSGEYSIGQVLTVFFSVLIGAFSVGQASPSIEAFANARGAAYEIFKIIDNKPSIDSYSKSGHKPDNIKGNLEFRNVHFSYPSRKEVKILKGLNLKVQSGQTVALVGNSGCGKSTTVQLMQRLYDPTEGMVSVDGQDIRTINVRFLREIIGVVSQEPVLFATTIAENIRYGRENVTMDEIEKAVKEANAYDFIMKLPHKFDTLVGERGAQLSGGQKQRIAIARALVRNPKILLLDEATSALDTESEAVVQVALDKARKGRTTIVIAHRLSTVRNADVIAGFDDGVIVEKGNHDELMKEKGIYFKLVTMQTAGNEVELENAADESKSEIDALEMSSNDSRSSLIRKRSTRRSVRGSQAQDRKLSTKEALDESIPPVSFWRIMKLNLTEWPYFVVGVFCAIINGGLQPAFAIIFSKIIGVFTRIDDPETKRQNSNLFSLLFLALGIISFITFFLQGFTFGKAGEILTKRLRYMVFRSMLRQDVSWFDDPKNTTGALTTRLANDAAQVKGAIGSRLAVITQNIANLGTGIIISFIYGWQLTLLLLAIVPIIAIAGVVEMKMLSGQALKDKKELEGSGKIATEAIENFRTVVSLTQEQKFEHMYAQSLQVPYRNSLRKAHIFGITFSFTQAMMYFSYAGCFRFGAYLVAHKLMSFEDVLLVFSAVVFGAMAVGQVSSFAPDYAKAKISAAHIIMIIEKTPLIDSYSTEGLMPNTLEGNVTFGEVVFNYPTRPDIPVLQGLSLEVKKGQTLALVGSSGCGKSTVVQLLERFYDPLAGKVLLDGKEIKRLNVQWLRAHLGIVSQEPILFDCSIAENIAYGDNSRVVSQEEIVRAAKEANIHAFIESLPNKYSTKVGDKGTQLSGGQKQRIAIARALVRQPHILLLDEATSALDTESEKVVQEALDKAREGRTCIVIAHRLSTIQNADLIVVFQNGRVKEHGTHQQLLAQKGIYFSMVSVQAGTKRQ

With `C[C@H]1CN(c2n[nH]c3nc(N[C@H]4CC[C@H](NS(=O)(=O)CCC(F)(F)F)CC4)ncc23)CCO1` the IC50 was ≥ 20 µM (Small ribosomal subunit protein uS3 (Homo sapiens, UniProt P23396); biochemical).
Under “half-life at steady state”, `C[C@]1(CO)Cc2ncn(-c3ccc(C#N)c(Cl)c3)c2C(=O)O1` is recorded as 6.2 h (healthy Japanese adults, plasma; 40 mg once daily, multiple dose).
`CCc1ccc(CC/C=C/c2ccc3c(c2)C(=O)CC3)cc1` has a potassium of 4.34 mM (Sprague-Dawley rat, female, serum; oral, 450 mg/kg/day, 14 days).
`COc1cccc(C2(O)CCCCC2CN(C)C)c1` (stereo not shown) has an intercompartmental clearance of 0.0567 L/h (joint PK model; human, whole blood; oral, one-compartment metabolite model).
Under “enzyme contribution to CLint”, `CC1(C)C(C=C(Cl)Cl)C1C(=O)OC(C#N)c1ccc(F)c(Oc2ccccc2)c1` (stereo not shown) is recorded as 57% (human microsomal CES1; IVIVE from expressed enzymes; human, liver, in vivo scaled; 0.1 µM, age-specific).
`[Cl-].[Cl-].[Pt+2].[Ru+2].c1ccc(-c2nc3cc4ccccc4cc3nc2-c2ccccn2)nc1.c1cnc2c(c1)ccc1cccnc12.c1cnc2c(c1)ccc1cccnc12` gave a hatching rate of 3.33 ± 3.7% (Danio rerio; embryos; 75 µM, 48 h).
`CO[C@H]1C[C@@H]2CC[C@@H](C)[C@@](O)(O2)C(=O)C(=O)N2CCCC[C@H]2C(=O)O[C@H]([C@H](C)C[C@@H]2CC[C@@H](OC(=O)NCCOCCOCCOCCOCCOCCOCCOCCOCCC(=O)N3CCc4cc(Cn5nc(-c6ccc7oc(N)nc7c6)c6c(N)ncnc65)ccc4C3)[C@H](OC)C2)C[C@@H](O)[C@H](C)/C=C(\C)[C@@H](O)[C@@H](OC)C(=O)[C@H](C)C[C@H](C)/C=C/C=C/C=C/1C` — result for “incidence of Dysgeusia TEAE”: 0% (patients with advanced solid tumours; intravenous, 1.6 mg/3 mg weekly, grade ≥3).
For `O=C1c2ccccc2C(=O)c2ccccc21`, the viability was 131 ± 25.4% (HK-2 co-cultured with HepaRG; MTT; 33.33 µM, 24 h; reference: untreated control).
`COc1cccc(-c2n[nH]c(SCc3ccccn3)n2)c1OC` — result for “revertant colonies per plate”: 13 (Escherichia coli; Ames test, preincubation; WP2 uvrA; 1.0 mg/plate, without S9).
`O=c1ccc2ccccc2o1` — result for “point of departure”: 406 µM (NHEK; oxygen consumption rate, Seahorse; 6 h).
`CNC1(c2ccccc2Cl)CCCCC1=O` (racemic) has an inhibition of 3% (UDP-glucuronosyltransferase 1A1 (UGT1A1, Homo sapiens, UniProt P22309); enzyme activity; 30 µM).
`[Cl-].[Cl-].[Pt+2].[Ru+2].c1ccc(-c2nccnc2-c2ccccn2)nc1.c1cnc2c(c1)ccc1cccnc12.c1cnc2c(c1)ccc1cccnc12` has a hatching rate of 40 ± 6.1% (Danio rerio; embryos; 30 µM, 96 h).
`CC(C)CC(=O)OC[C@H]1O[C@@](C#N)(c2ccc3c(N)ncnn23)[C@H](O)[C@@H]1O`: “recovery A to B” 32.7% (ATP-dependent translocase ABCB1 (ABCB1, Homo sapiens, UniProt P08183); Caco-2; 9 µM, 2 h).
`COc1cc2ncnc(Nc3cccc(Cl)c3)c2cc1OC` gave a viability of 109% and 102% and 103% (HaCaT; 0.015 µM, 60 h).
`CC(=O)N1CCC(C(=O)N2CCN3C(=O)c4cc(-c5ccccc5)ccc4NC(=O)C3C2)CC1` (stereo not shown) — result for “revertants per plate”: 34.5 (Escherichia coli; WP2 uvrA; 5000 µg/plate, with: rat liver S9).
With `Cc1cc(C(=O)NC(C)(C)COc2cccc3c2C(N)=NS(=O)(=O)N3)cc(C)n1` the revertant ratio was 1.3 (Salmonella typhimurium; Ames test, initial; TA1535; 5000 µg/plate; reference: solvent control).
`COc1ccc2c(c1OC)C(=O)c1c(cc(C)c(O)c1OC)C2=O` has a cell viability of 92 ± 16.5% (HepaRG co-cultured with HK-2; MTT; 16.67 µM, 24 h; reference: untreated control).
The induction factor of `OC(CCN1CC=C(c2ccc(F)cc2)CC1)c1ccc(F)c2ccccc12` (stereo not shown) is reported as 1.1 (Salmonella typhimurium; genotoxicity, SOS/umu test; TA1535/pSK1002; 0.008 mg/mL, 4 h, with S9, full range).
The cell viability of `Cc1cc2c(c(O)c1O)C(=O)c1c(O)cc(O)cc1C2=O` is reported as 81.3 ± 5.04% (HK-2 co-cultured with HepaRG; MTT; 16.67 µM, 48 h; reference: untreated control).
`CC1(C)[C@H](C(=O)OCc2cccc(Oc3ccccc3)c2)[C@@H]1C=C(Cl)Cl`: “relative enzyme contribution” 52.6% (human microsomal CES1; IVIVE from expressed enzymes; human, 6 months old, expressed human CES1; 0.1 µM; reference: total hepatic CLint in vivo).
`COc1cc2c(Oc3ccc4[nH]c(C)cc4c3F)ccnc2cc1OCC1(N)CC1`: “grade 1 or 2 Fever” 20% (paediatric recurrent refractory sarcoma; 8 mg/kg).
`CC(=O)OC[C@H]1O[C@@H](Oc2cc(O)cc3cc4oc(C)cc(=O)c4c(O)c23)[C@H](O)[C@@H](O)[C@@H]1O` has a cell viability of 77.5 ± 2.94% (HK-2 co-cultured with HepaRG; MTT; 266.67 µM, 48 h; reference: untreated control).

Repeated from above:
`CO[C@H]1C[C@@H]2CC[C@@H](C)[C@@](O)(O2)C(=O)C(=O)N2CCCC[C@H]2C(=O)O[C@H]([C@H](C)C[C@@H]2CC[C@@H](OC(=O)NCCOCCOCCOCCOCCOCCOCCOCCOCCC(=O)N3CCc4cc(Cn5nc(-c6ccc7oc(N)nc7c6)c6c(N)ncnc65)ccc4C3)[C@H](OC)C2)C[C@@H](O)[C@H](C)/C=C(\C)[C@@H](O)[C@@H](OC)C(=O)[C@H](C)C[C@H](C)/C=C/C=C/C=C/1C` — result for “incidence of Dysgeusia TEAE”: 0% (patients with advanced solid tumours; intravenous, 1.6 mg/3 mg weekly, grade ≥3).
For `O=C1c2ccccc2C(=O)c2ccccc21`, the viability was 131 ± 25.4% (HK-2 co-cultured with HepaRG; MTT; 33.33 µM, 24 h; reference: untreated control).
`COc1cccc(-c2n[nH]c(SCc3ccccn3)n2)c1OC` — result for “revertant colonies per plate”: 13 (Escherichia coli; Ames test, preincubation; WP2 uvrA; 1.0 mg/plate, without S9).
